Results pooled from the literature.
Parts stem from different laboratories: compare values within a part only.

Sample 1
Target: Interferon regulatory factor 5, full length, phosphomimetic (IRF5, Homo sapiens, UniProt Q13568-2, residues 1-514, K96S/S451D/S453D/S456D/S462D)
Technique: protein-binding microarray
Molecule type: double-stranded DNA, one strand shown
Medium: in vitro
Concentration: 250 nM
Setting: 60-bp whole probe
Added: salmon DNA 0.4 mg/ml
Reference: random background probes
Reading: higher = stronger binding
The log fluorescence of `GCCTAGCACGACGGTTTCCTTATCCTTACGTGCTAGGTCTTGATTCGCTTGACGCTGCTG` is reported as 0.869 z-score.
For `GCCTAGCACCTTCTCCTCCAGGTTCTCTGAGTGCTAGTCTTGATTCGCTTGACGCTGCTG`, the log fluorescence was -0.148 z-score.
`GCCTAGCACTTCGGTTCCGGTTTCGGTTAGTGCTAGGTCTTGATTCGCTTGACGCTGCTG` has a log fluorescence of 9.33 z-score.

Sample 2
Target: Sal-like protein 4, full length isoform B (SALL4, Homo sapiens, UniProt Q9UJQ4-2, residues 1-616)
Technique: universal PBM
Molecule type: double-stranded DNA, one strand shown
Medium: in vitro
Concentration: not given
Setting: 8-mer, flanks averaged, mean of replicates
Reading: higher = stronger binding
Target sequence (chain): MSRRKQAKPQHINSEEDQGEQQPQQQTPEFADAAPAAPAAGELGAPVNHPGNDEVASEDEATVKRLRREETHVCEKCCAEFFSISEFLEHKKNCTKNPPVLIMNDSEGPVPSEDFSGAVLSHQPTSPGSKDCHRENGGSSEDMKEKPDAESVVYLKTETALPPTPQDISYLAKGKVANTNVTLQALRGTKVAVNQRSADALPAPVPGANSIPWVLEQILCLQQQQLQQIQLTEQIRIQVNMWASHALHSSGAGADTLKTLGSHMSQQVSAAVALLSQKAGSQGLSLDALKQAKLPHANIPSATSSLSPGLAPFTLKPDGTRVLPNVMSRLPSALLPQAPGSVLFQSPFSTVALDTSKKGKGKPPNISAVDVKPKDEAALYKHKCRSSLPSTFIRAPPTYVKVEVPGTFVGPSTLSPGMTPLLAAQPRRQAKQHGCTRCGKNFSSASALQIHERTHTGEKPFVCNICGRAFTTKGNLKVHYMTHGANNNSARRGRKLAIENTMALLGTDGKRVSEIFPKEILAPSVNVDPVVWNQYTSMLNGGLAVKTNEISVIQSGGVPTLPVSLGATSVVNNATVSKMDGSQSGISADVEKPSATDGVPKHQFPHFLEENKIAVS
For `GGTCTAAA`, the E-score was 0.0478.
`ATATTCGA` gave an E-score of 0.264.
`GGAAGAAC` has an E-score of -0.0225.
With `AGAGGGTA` the E-score was -0.0531.

Sample 3
Target: Prothrombin, mature alpha-thrombin (F2, Homo sapiens, UniProt P00734)
Technique: aptamer microarray, sandwich
Molecule type: DNA with 2'F-ANA
Medium: in vitro
Concentration: 200 nM
Setting: whole 15-mer aptamer, many near background
Added: Cy3 exosite-II aptamer, 400 nM
Reading: higher = stronger binding
`GGTTGGTGTGGTTGG (2'F-ANA at 1 2 5 6 7 8 10 12 13 14 15)`: “mean fluorescence intensity” 75.9 a.u.
For `GGTTGGTGTGGTTGG (2'F-ANA at 1 3 6 9 10 14)`, “mean fluorescence intensity” read 59.7 a.u.
`GGTTGGTGTGGTTGG (2'F-ANA at 1 4 5 6 9 10 13 15)` — result for “mean fluorescence intensity”: 45.6 a.u.
`GGTTGGTGTGGTTGG (2'F-ANA at 2 3 7 8 9 11 13 14)`: “mean fluorescence intensity” 408 a.u.

Single results of other studies
With `PhoQ, residues 284 288 289 292 302 303 SIHMAM` the fold induction was 1.37 (PhoP, residues 12 14 15 18 19 NQAHL (Escherichia coli, UniProt P23836); Sort-seq, item: YFP reporter; E. coli; PhoQ-PhoP variant library, added: 10 µM Mg2+; reference: high Mg2+ state, higher = stronger signaling).

Some of these lines once more (sample 3):
`GGTTGGTGTGGTTGG (2'F-ANA at 1 4 5 6 9 10 13 15)` — result for “mean fluorescence intensity”: 45.6 a.u.
